# Measured values pooled from the literature.
# Each numbered part is a random draw from the data of one study; scales do not carry over between parts. “And” joins repeats or separate records; there may be more than shown.
# UniProt P42336, sequence (whole entry, unmodified, looked up): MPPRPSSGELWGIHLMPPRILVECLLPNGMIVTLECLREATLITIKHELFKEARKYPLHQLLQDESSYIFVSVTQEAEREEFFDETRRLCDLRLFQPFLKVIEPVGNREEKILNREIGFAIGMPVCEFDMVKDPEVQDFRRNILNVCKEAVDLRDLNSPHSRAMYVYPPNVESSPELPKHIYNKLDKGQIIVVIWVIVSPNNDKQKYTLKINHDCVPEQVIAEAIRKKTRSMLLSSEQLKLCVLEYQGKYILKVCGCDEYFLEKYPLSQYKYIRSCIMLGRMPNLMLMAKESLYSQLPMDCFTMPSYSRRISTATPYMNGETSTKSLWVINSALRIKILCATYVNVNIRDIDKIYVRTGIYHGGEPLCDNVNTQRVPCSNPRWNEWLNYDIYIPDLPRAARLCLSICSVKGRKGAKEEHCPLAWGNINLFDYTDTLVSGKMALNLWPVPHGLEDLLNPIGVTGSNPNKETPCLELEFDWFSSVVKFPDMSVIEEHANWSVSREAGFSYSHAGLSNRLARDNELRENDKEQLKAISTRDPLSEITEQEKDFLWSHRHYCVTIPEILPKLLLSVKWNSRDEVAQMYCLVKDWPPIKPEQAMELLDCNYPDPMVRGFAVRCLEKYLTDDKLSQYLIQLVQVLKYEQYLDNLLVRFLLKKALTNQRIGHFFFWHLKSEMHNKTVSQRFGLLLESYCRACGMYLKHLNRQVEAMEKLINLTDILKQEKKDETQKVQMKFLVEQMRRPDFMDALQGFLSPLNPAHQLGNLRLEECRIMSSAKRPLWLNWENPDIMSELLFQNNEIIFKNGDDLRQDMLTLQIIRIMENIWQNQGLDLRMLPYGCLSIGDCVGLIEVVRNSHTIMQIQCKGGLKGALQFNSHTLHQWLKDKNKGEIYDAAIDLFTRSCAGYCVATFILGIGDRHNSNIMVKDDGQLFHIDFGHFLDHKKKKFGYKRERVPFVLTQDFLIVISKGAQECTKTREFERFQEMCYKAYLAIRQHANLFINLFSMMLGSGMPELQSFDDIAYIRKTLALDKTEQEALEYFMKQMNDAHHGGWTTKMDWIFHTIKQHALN
# UniProt P78368, sequence (whole entry, looked up): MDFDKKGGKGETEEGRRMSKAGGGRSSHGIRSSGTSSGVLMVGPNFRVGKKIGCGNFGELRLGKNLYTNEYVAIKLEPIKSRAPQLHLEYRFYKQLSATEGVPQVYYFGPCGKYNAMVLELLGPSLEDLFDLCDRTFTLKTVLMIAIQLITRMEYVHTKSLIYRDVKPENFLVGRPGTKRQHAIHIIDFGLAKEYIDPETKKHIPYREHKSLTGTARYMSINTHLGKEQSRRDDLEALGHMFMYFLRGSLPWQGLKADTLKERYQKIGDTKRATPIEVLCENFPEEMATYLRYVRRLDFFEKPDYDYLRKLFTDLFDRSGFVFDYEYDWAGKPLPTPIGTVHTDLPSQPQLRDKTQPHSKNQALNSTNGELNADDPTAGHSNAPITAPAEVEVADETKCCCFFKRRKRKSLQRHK
# UniProt P49674, sequence (whole entry, looked up): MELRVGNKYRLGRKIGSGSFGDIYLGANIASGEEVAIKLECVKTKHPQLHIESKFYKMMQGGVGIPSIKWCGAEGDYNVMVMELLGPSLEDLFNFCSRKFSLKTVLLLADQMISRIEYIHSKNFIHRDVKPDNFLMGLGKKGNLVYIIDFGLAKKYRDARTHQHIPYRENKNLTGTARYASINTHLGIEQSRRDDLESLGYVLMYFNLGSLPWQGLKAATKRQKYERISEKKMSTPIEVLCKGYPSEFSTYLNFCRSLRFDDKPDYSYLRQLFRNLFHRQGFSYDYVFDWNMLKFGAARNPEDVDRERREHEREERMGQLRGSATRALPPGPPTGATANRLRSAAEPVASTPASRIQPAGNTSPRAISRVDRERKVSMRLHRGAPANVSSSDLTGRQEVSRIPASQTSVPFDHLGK

# Study 1 — effect on: enzyme activity
# Structure (SMILES): NC/C(=C\F)COc1cc(Cn2c(=S)[nH]c(=O)c3[nH]ccc32)ccc1Cl
# Target: Myeloperoxidase (MPO, Homo sapiens, UniProt P05164)
# UniProt P05164, sequence (whole entry, looked up): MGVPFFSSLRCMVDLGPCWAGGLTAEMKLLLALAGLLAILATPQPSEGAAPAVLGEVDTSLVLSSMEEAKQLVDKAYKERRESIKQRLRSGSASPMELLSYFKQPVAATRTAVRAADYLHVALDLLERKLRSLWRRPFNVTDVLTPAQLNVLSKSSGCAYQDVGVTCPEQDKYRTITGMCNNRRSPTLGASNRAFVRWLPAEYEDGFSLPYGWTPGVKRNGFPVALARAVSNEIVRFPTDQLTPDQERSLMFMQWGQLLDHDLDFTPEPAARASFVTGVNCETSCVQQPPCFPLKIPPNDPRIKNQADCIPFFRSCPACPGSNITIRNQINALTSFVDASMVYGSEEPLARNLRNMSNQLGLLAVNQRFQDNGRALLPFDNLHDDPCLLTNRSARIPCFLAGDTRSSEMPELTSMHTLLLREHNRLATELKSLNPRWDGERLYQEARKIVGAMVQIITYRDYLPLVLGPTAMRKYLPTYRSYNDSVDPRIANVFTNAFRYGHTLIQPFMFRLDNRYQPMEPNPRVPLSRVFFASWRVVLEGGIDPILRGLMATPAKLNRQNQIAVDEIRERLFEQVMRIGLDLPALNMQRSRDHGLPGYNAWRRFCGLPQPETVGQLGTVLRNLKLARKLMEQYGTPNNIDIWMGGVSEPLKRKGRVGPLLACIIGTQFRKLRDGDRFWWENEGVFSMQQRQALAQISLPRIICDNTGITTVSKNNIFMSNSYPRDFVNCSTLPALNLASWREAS
setting,inhibition
0.1235 µM,96.6% and 96.5%
10 µM,99.5% and 99.8%
0.0005 µM,-17.1% and 14.9%

# Study 2
# Compound: COc1cc(-c2nc3ccc(C(=O)NCCCN(C)C)cc3n2C2CCC2)cc(OC)c1OC
target,assay,setting,remaining binding [%]
"Mitogen-activated protein kinase 11 (MAPK11, Homo sapiens, UniProt Q15759)","binding, competition with immobilised ligand",1 µM,88
"Phosphatidylinositol 4,5-bisphosphate 3-kinase catalytic subunit alpha isoform (PIK3CA, Homo sapiens, UniProt P42336, C420R)","binding, competition with immobilised ligand",1 µM,66
"Cyclin-dependent kinase 3 (CDK3, Homo sapiens, UniProt Q00526)","binding, competition with immobilised ligand",1 µM,100
"Insulin receptor (INSR, Homo sapiens, UniProt P06213)","binding, competition with immobilised ligand",1 µM,93
"Serine/threonine-protein kinase Nek2 (NEK2, Homo sapiens, UniProt P51955)","binding, competition with immobilised ligand",1 µM,85
"Phosphatidylinositol 4,5-bisphosphate 3-kinase catalytic subunit alpha isoform (PIK3CA, Homo sapiens, UniProt P42336, I800L)","binding, competition with immobilised ligand",1 µM,79
"Calcium/calmodulin-dependent protein kinase type II subunit delta (CAMK2D, Homo sapiens, UniProt Q13557)","binding, competition with immobilised ligand",1 µM,84
"Epidermal growth factor receptor (EGFR, Homo sapiens, UniProt P00533, G719C)","binding, competition with immobilised ligand",1 µM,90
"Dual specificity protein kinase CLK1 (CLK1, Homo sapiens, UniProt P49759)","binding, competition with immobilised ligand",1 µM,97
"Epidermal growth factor receptor (EGFR, Homo sapiens, UniProt P00533, A750P/del747-749)","binding, competition with immobilised ligand",1 µM,75
"Insulin receptor-related protein (INSRR, Homo sapiens, UniProt P14616)","binding, competition with immobilised ligand",1 µM,92
"Serine/threonine-protein kinase mTOR (MTOR, Homo sapiens, UniProt P42345)","binding, competition with immobilised ligand",1 µM,100
"Tyrosine-protein kinase ABL1, non-phosphorylated (ABL1, Homo sapiens, UniProt P00519)","binding, competition with immobilised ligand",1 µM,46
"Proto-oncogene tyrosine-protein kinase receptor Ret (RET, Homo sapiens, UniProt P07949)","binding, competition with immobilised ligand",1 µM,100
"Serine/threonine-protein kinase MRCK beta (CDC42BPB, Homo sapiens, UniProt Q9Y5S2)","binding, competition with immobilised ligand",1 µM,96
"Tyrosine-protein kinase receptor Tie-1 (TIE1, Homo sapiens, UniProt P35590)","binding, competition with immobilised ligand",1 µM,96
"Proto-oncogene tyrosine-protein kinase ROS (ROS1, Homo sapiens, UniProt P08922)","binding, competition with immobilised ligand",1 µM,88
"Mast/stem cell growth factor receptor Kit, autoinhibited (KIT, Homo sapiens, UniProt P10721)","binding, competition with immobilised ligand",1 µM,81
"Phosphatidylinositol 4-phosphate 5-kinase type-1 gamma (PIP5K1C, Homo sapiens, UniProt O60331)","binding, competition with immobilised ligand",1 µM,43
"Phosphatidylinositol 5-phosphate 4-kinase type-2 beta (PIP4K2B, Homo sapiens, UniProt P78356)","binding, competition with immobilised ligand",1 µM,100
"Interferon-induced, double-stranded RNA-activated protein kinase (EIF2AK2, Homo sapiens, UniProt P19525)","binding, competition with immobilised ligand",1 µM,92
"Mitogen-activated protein kinase kinase kinase 6 (MAP3K6, Homo sapiens, UniProt O95382)",KINOMEscan,1000 nM,91
"Interleukin-1 receptor-associated kinase 1 (IRAK1, Homo sapiens, UniProt P51617)","binding, competition with immobilised ligand",1 µM,70
"Ephrin type-A receptor 7 (EPHA7, Homo sapiens, UniProt Q15375)","binding, competition with immobilised ligand",1 µM,94
"Serine/threonine-protein kinase pim-3 (PIM3, Homo sapiens, UniProt Q86V86)","binding, competition with immobilised ligand",1 µM,84

# Study 3 — effect on: kinase activity
# Compound: CNc1ncc2cc(-c3cc(OC)cc(OC)c3Cl)c(=O)n(CCc3ccc(NC(=O)C(C#N)=CC(C)(C)N4CCOCC4)cc3)c2n1
target,setting,inhibition [%]
"G protein-coupled receptor kinase 6 (GRK6, Homo sapiens, UniProt P43250)",1 µM,2
"Cytoplasmic tyrosine-protein kinase BMX (BMX, Homo sapiens, UniProt P51813)",1 µM,-10
"Casein kinase I isoform gamma-2 (CSNK1G2, Homo sapiens, UniProt P78368)",0.1 µM,0
"Serine/threonine-protein kinase MARK2 (MARK2, Homo sapiens, UniProt Q7KZI7)",1 µM,2
"Mast/stem cell growth factor receptor Kit (KIT, Homo sapiens, UniProt P10721)",1 µM,24
"Mitogen-activated protein kinase 1 (MAPK1, Homo sapiens, UniProt P28482)",1 µM,-1
"Discoidin domain-containing receptor 2 (DDR2, Homo sapiens, UniProt Q16832)",1 µM,6
"Insulin receptor (INSR, Homo sapiens, UniProt P06213)",1 µM,6
"Serine/threonine-protein kinase PLK3 (PLK3, Homo sapiens, UniProt Q9H4B4)",0.1 µM,-2
"Interleukin-1 receptor-associated kinase 4 (IRAK4, Homo sapiens, UniProt Q9NWZ3)",1 µM,0
"Cyclin-dependent kinase 2, with cyclin E (CDK2, Homo sapiens, UniProt P24941)",1 µM,4
"Serine/threonine-protein kinase MRCK alpha (CDC42BPA, Homo sapiens, UniProt Q5VT25)",1 µM,-2
"Tyrosine-protein kinase ABL2 (ABL2, Homo sapiens, UniProt P42684)",1 µM,6

# Study 4 — concentration: 1 µM
# Compound: CC[C@@]1(c2cccc(C(F)(F)F)c2)C2=C(Nc3n[nH]cc31)[C@H](F)C(C)(C)CC2=O (single isomer, unassigned)
target,assay,how to read,remaining binding [%]
"Cyclin-dependent kinase 9 (CDK9, Homo sapiens, UniProt P50750)","binding, competition with immobilised ligand",,100
"Serine/threonine-protein kinase tousled-like 1 (TLK1, Homo sapiens, UniProt Q9UKI8)","kinase binding, KINOMEscan",reference: DMSO control,85
"Cyclin-dependent kinase 4, with cyclin D1 (CDK4, Homo sapiens, UniProt P11802)","binding, competition with immobilised ligand",,90
"Serine/threonine-protein kinase Sgk1 (SGK1, Homo sapiens, UniProt O00141)","binding, competition with immobilised ligand",,92
"Casein kinase I isoform gamma-2 (CSNK1G2, Homo sapiens, UniProt P78368)","kinase binding, KINOMEscan",reference: DMSO control,85
"Cyclin-dependent kinase-like 2 (CDKL2, Homo sapiens, UniProt Q92772)","binding, competition with immobilised ligand",,100
"Cyclin-dependent kinase 8 (CDK8, Homo sapiens, UniProt P49336)","kinase binding, KINOMEscan",reference: DMSO control,100
"Dual specificity mitogen-activated protein kinase kinase 7 (MAP2K7, Homo sapiens, UniProt O14733)","kinase binding, KINOMEscan",reference: DMSO control,100
"Testis-specific serine/threonine-protein kinase 1 (TSSK1B, Homo sapiens, UniProt Q9BXA7)","kinase binding, KINOMEscan",reference: DMSO control,85
"eIF-2-alpha kinase GCN2 (EIF2AK4, Homo sapiens, UniProt Q9P2K8, S808G)","kinase binding, KINOMEscan",reference: DMSO control,83
"Cyclin-dependent kinase 11A (CDK11A, Homo sapiens, UniProt Q9UQ88)","kinase binding, KINOMEscan",reference: DMSO control,100
"Serine/threonine-protein kinase WNK3 (WNK3, Homo sapiens, UniProt Q9BYP7)","binding, competition with immobilised ligand",,100
"Phosphatidylinositol 4,5-bisphosphate 3-kinase catalytic subunit alpha isoform (PIK3CA, Homo sapiens, UniProt P42336, M1043I)","binding, competition with immobilised ligand",,98
"Ephrin type-A receptor 2 (EPHA2, Homo sapiens, UniProt P29317)","kinase binding, KINOMEscan",reference: DMSO control,100
"Serine/threonine-protein kinase RIO1 (RIOK1, Homo sapiens, UniProt Q9BRS2)","binding, competition with immobilised ligand",,100
"Homeodomain-interacting protein kinase 1 (HIPK1, Homo sapiens, UniProt Q86Z02)","binding, competition with immobilised ligand",,73
"Serine/threonine-protein kinase pim-3 (PIM3, Homo sapiens, UniProt Q86V86)","kinase binding, KINOMEscan",reference: DMSO control,100
"Cyclin-dependent kinase 2 (CDK2, Homo sapiens, UniProt P24941)","binding, competition with immobilised ligand",,97
"Casein kinase I isoform epsilon (CSNK1E, Homo sapiens, UniProt P49674)","binding, competition with immobilised ligand",,100

# Study 5 — cell line: U-87 MG; concentration: concentration not given; reference: DMSO
# Structure (SMILES): CCN1/C(=C/C=C2\CCCC(/C=C/C3=[N+](CC)c4ccccc4C3(C)C)=C2NCCCCCCCCN2CCC(Nc3nc4ccccc4n3Cc3ccc(F)cc3)CC2)C(C)(C)c2ccccc21
assay,log2 fold change
item: DENND2B mRNA,-1.74
item: MAP10 mRNA,-1.07
item: TCP11L2 mRNA,1.16
item: IFT122 mRNA,-0.918
item: AOX1 mRNA,-1.53
item: SSC4D mRNA,-1.79
item: FAXDC2 mRNA,-2
item: KLHL24 mRNA,1.7
item: RGS7 mRNA,1.76
item: UBAP1 mRNA,0.885
item: RPS6KA4 mRNA,-0.952
item: DNAJB9 mRNA,2.82
item: PALM2AKAP2 mRNA,1.02
item: GALK1 mRNA,-1.03
item: H2BC5 mRNA,1.35
item: RAD51AP1 mRNA,-1.5

# Study 6 — effect on: thermal unfolding; technique: differential scanning fluorimetry; concentration: 5.5 µM; reading: higher = more unfolded
# Structure (SMILES): C[C@@H]1CN(c2ccc(-c3cc(C(=O)NCCOCCOCCOCCOCCNC(=O)/C=C/c4[nH]cc(C(=O)N[C@@H](CC(N)=O)c5ccc(F)c(Cl)c5)c4-c4ccc(Cl)cc4F)ccc3F)cc2NC(=O)c2c[nH]c(=O)cc2C(F)(F)F)C[C@H](C)N1C
# WDR5: WD repeat-containing protein 5 (WDR5, Homo sapiens, UniProt P61964)
# DCAF1: DDB1- and CUL4-associated factor 1 (DCAF1, Homo sapiens, UniProt Q9Y4B6)
# UniProt Q9Y4B6, sequence (whole entry, looked up): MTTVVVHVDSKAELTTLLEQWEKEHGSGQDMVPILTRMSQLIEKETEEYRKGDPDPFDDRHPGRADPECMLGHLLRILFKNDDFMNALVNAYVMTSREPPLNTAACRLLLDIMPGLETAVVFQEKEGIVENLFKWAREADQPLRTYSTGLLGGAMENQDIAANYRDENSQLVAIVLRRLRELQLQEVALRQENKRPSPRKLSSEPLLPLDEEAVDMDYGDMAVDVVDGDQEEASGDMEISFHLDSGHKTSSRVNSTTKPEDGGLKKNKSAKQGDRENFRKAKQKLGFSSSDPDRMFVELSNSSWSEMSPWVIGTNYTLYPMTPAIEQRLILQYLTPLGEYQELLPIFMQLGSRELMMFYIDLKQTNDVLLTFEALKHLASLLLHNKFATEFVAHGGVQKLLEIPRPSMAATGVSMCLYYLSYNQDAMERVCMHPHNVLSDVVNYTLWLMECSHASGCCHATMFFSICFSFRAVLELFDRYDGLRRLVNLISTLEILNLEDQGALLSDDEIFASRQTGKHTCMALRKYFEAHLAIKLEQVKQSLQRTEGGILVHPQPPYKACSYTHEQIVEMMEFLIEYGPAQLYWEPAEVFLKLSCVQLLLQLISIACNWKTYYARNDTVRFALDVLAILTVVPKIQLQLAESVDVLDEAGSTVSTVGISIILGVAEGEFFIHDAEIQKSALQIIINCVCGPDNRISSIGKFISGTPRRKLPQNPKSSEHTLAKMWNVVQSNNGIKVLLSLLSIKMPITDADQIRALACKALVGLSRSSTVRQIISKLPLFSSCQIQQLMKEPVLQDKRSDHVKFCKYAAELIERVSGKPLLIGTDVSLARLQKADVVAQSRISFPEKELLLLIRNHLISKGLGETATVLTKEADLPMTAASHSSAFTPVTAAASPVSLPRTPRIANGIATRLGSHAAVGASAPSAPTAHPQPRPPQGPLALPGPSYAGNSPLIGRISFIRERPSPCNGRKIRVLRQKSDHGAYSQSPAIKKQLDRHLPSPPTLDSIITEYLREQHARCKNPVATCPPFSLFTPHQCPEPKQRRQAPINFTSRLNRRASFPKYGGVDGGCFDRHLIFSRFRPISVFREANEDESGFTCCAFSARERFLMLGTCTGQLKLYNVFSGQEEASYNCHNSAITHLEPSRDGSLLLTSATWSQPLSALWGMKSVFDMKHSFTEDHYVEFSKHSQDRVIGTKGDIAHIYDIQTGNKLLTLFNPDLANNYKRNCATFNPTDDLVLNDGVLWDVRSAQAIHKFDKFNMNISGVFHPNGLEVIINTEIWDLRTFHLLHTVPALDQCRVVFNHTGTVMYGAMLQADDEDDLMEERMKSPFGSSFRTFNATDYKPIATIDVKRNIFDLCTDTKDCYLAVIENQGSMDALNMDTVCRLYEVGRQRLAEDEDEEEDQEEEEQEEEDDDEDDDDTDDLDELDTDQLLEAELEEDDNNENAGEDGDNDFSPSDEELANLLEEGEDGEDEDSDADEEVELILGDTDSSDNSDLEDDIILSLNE
target,setting,SYPRO Orange fluorescence [a.u.]
WDR5,57.61 °C,16400
DCAF1,79.61 °C,45700
WDR5,81.01 °C,43300
WDR5,76.81 °C,30600
DCAF1,36.4 °C,10500
WDR5,67.81 °C,14300
WDR5,54.81 °C,16800
WDR5,80.21 °C,41000
DCAF1,66.41 °C,59300
DCAF1,61.01 °C,45600
WDR5,39.2 °C,14100

# Study 7
# SMILES: Cc1ncsc1-c1ccc(C(CO)NC(=O)C2CC(O)CN2C(=O)C(C(C)C)n2cc(-c3ccc(COc4c(-c5c(C)c(F)cc6[nH]ncc56)c(C5CC5)cc5c(N6CC7CC6CN7)nc(OC6CCOCC6)nc45)cc3)nn2)cc1 (centres unmarked)
test system,setting,body weight
"mouse, GP5d xenograft","30 mg/kg once weekly, day 0",27.8 g and 22.4 g and 24 g
"mouse, lung LXFA sample A PDX","10 mg/kg twice weekly, day 22",29.8 g and 27.7 g and 26.5 g and 29.9 g
"mouse, PK-59 xenograft","subcutaneous, 30 mg/kg once daily, day 4",18.6 g and 21.9 g and 20.1 g and 19.3 g and 17.9 g
"mouse, PK-59 xenograft","subcutaneous, 30 mg/kg once daily, day 11",18.8 g and 22.2 g and 20.6 g and 19.6 g and 18.7 g
"mouse, HT-29 xenograft","sc, 30 mg/kg once daily, day 15",19.2 g and 17.1 g and 21.1 g and 18.4 g and 20 g
"mouse, HT-29 xenograft","sc, 30 mg/kg once daily, day 6",18.4 g and 20.5 g and 17.2 g and 17.5 g and 20.8 g
"mouse, lung LXFA sample A PDX","30 mg/kg twice weekly, day 2",28.6 g
"mouse, GP5d xenograft","30 mg/kg twice weekly, day 14",25 g

# Study 8 — effect on: binding; mode: competitor; technique: NanoBRET; cell line: HEK293
# Structure (SMILES): CN1CCC[C@H]1COc1nc2c(c(N3CCN(C(=O)C4CC4)[C@@H](CC#N)C3)n1)CCN(c1cccc3cccc(Cl)c13)C2
# KRAS G12D: GTPase KRas (KRAS, Homo sapiens, UniProt P01116, G12D)
# KRAS Q61R: GTPase KRas (KRAS, Homo sapiens, UniProt P01116, Q61R)
# KRAS G13D: GTPase KRas (KRAS, Homo sapiens, UniProt P01116, G13D)
# KRAS Q61L: GTPase KRas (KRAS, Homo sapiens, UniProt P01116, Q61L)
target,setting,normalized BRET
KRAS G12D,1.24 µM,83.4% and 94.3% and 97.7%
"GTPase KRas (KRAS, Homo sapiens, UniProt P01116, Q61H)",3.7 µM,42% and 50.1% and 42.6%
KRAS Q61R,45.7 nM,88.2% and 98.4% and 98.6%
KRAS G13D,11.1 µM,23.2% and 21.6% and 18.3%
KRAS Q61L,11.1 µM,38.1% and 37% and 35.1%
KRAS G13D,3.7 µM,42.8% and 43.4% and 38.7%
KRAS G13D,1.24 µM,70.7% and 64.8% and 62.5%
KRAS Q61R,412 nM,93.1% and 81.7% and 97%
KRAS Q61L,15.2 nM,90.4% and 93.6% and 88%
KRAS G12D,15.2 nM,107% and 103% and 97.3%

# Study 9
# Structure (SMILES): Cc1ccc(O)c(C)c1-c1cnc2[nH]c(-c3cnc(N4CCC5(CC4)CC(N4CCN(c6ccc(N[C@H]7CCC(=O)N(C)C7=O)cc6F)CC4)CO5)nc3)cc2c1C#N (single isomer, unassigned)
# PKMYT1: Membrane-associated tyrosine- and threonine-specific cdc2-inhibitory kinase (PKMYT1, Homo sapiens, UniProt Q99640)
# UniProt Q99640, sequence (whole entry, looked up): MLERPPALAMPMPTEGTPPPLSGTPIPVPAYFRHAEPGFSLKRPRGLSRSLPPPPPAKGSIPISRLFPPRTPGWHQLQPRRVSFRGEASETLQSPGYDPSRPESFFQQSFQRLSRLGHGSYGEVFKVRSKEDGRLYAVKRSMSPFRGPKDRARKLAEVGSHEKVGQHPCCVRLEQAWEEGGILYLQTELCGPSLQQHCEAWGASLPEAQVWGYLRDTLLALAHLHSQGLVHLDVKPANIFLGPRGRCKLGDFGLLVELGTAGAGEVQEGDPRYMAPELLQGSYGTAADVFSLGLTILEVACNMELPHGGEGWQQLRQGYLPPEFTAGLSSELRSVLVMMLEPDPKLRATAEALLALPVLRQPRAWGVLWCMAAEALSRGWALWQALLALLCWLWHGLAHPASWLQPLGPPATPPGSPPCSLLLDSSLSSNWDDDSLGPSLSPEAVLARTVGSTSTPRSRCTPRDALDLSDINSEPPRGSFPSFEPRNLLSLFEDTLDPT
tested on,assay,setting,inhibition
HCC1569,"automated capillary immunoblot, item: CDK1 phospho-Thr14","0.05 nM, 24 h",-3.15%
PKMYT1,"kinase activity, inhibitor",0.1111 µM,96.6% and 95.2%
PKMYT1,"enzyme activity, inhibitor",1 µM,97.6% and 94.3%
PKMYT1,"kinase activity, inhibitor",5e-05 µM,-7.57% and 0.82%

# Single results of other studies
Structure (SMILES),cell line,assay,setting,quantity,result
CCn1cnc2c(NCc3nc4ccc(F)c(F)c4[nH]3)nc(N3CCn4ncnc4C3)nc21,MDA-MB-231,cell growth or viability,5 days,EC50,96.3 nM
